Measurements collected from several papers.
Each line is one published result; not all experiments were run side by side. “And” joins repeats or separate records; there may be more than shown. ± gives the spread as reported.
GLP1R: Glucagon-like peptide 1 receptor (GLP1R, Homo sapiens, UniProt P43220)

With `CCOc1ccc(NC(=O)O[C@@H](Cn2nc(C(C)C)cc2C(C)C)C(C)C)cc1` the current was 983 ± 107% (Neuronal acetylcholine receptor; alpha4/beta2, (α4)2(β2)3 stoichiometry (Homo sapiens, UniProt P17787+P43681); ACh-evoked current, two-electrode voltage clamp; 1 µM, high-sensitivity stoichiometry, added: ACh 1 µM; baseline: ACh alone).
The reaction rate of `Nc1nc2c(ncn2[C@@H]2O[C@H](COP(=O)(O)O)[C@@H](O)[C@H]2O)c(=O)[nH]1` is reported as -0.55 s⁻¹ and 0.26 s⁻¹ and -1.76 s⁻¹ (GUK1 (Homo sapiens, UniProt Q16774, S37A); enzyme activity, NADH-coupled; 62.5 µM).
`CC(=O)N1CC(C(=O)Nc2ccc([C@H]3[C@@H](F)[C@@H](F)C[C@@H](F)[C@H]3F)cc2)C1` gave a hepatic clearance of 21 mL/min/kg (hepatocyte stability; cryopreserved mouse hepatocytes; 1 µM).
`C[C@@H]1CCN(C(=O)CCl)[C@@H](C(N)=O)C1` gave a cysteine occupancy of 8.5% (human NEDD9 full length; LC-MS peptide mapping, item: Cys18; 50 µM, 1 h).
`Cc1ccc(N2CC(C(N)=O)CC2=O)cc1` (stereo not shown) — result for “log fold enrichment”: -0.0385 (Transcription intermediary factor 1-beta, PHD-bromodomain (TRIM28, Homo sapiens, UniProt Q13263); binding, affinity selection mass spectrometry; baseline: other proteins in batch).
`NC(=O)CCNC(=O)c1ccc([C@H]2[C@@H](F)[C@@H](F)C[C@@H](F)[C@H]2F)cc1` has a hepatic clearance of 21 mL/min/kg (hepatocyte stability; cryopreserved mouse hepatocytes; 1 µM).
`Nc1ccc(C(=O)O)cc1` has a current density of 11.7 pA/pF and 5.93 pA/pF and 8.41 pA/pF and 21.5 pA/pF and 6.79 pA/pF and 3.65 pA/pF (BEST1, with wild-type BEST1 (Homo sapiens, UniProt O76090, L234P); ion current, whole-cell patch clamp; HEK293 co-expressing mutant and wild-type; concentration not given, voltage 40 mV).
The efficacy of `COc1cccc(-n2nc3c4cc(Cl)ccc4[nH]cc-3c2=O)c1` is reported as 98.1 ± 3.2% (Gamma-aminobutyric acid receptor subunit alpha-6/beta-3, with delta subunit (Gabra6/Gabrb3, Rattus norvegicus, UniProt P30191+P63079); ion current, modulator, two-electrode voltage clamp; 300 nM, α6β3δ receptor, added: GABA EC3-10).
The inhibition of `C[C@@H]1CCO[C@H]2Cn3cc(C(=O)NCc4ccc(F)cc4F)c(=O)c(O)c3C(=O)N12` is reported as 12.5% (Solute carrier family 22 member 3 (SLC22A3, Homo sapiens, UniProt O75751); transport; MDCK-II, transfected; 1 µM, added: MPP+ 2 µM).
`Oc1ccc(/C=C/c2cc(O)cc(O)c2)cc1` — result for “ΔG of binding”: -7.68 kcal/mol (O-methyltransferase (Sorghum bicolor, UniProt A0A1B6PFV1); isothermal titration calorimetry; concentration not given, apo protein).
The Vmax of `[N-]=[N+]=NCC(=O)N[C@H]1[C@H]([C@H](O)[C@H](O)CO)O[C@@](OC[C@H]2O[C@@H](Oc3ccc([N+](=O)[O-])cc3)[C@H](O)[C@@H](O)[C@H]2O)(C(=O)O)C[C@@H]1O` is reported as 0.00087 ± 0.00012 mM/s (Sialidase-2 (Homo sapiens, UniProt Q9Y3R4); substrate; 10 min, pH 5.0, 37 °C).
`Cn1cc(-c2ccc(-c3cncc(Cl)c3N3CCC4(CCNC4=O)CC3)cc2)cn1` — result for “log2 fold change”: -2.49 (COLO 205; gene expression, microarray, item: HIST1H4D mRNA; concentration not given, 6 h; baseline: untreated cells).
`c1ccc(C(NCc2cccnc2)(c2ccccc2)c2ccccc2)cc1` gave a Hill coefficient of 0.7 (Potassium voltage-gated channel subfamily KQT member 1 (KCNQ1, Homo sapiens, UniProt P51787); ion current, inhibitor, whole-cell patch clamp; tsA201; peak current, no correction).
`CC[C@H](C)[C@H](NC(=O)[C@H](Cc1ccccc1)NC(=O)[C@H](CCC(=O)O)NC(=O)[C@H](CCCNC(=N)N)NC(=O)[C@H](C)NC(=O)[C@H](C)NC(=O)[C@H](CCC(N)=O)NC(=O)[C@H](CCC(=O)O)NC(=O)[C@H](CCC(=O)O)NC(=O)[C@H](CC(C)C)NC(=O)[C@H](Cc1ccc(O)cc1)NC(=O)[C@H](CO)NC(=O)[C@H](CO)NC(=O)[C@@H](NC(=O)[C@H](CC(=O)O)NC(=O)[C@H](CO)NC(=O)[C@@H](NC(=O)[C@H](Cc1ccccc1)NC(=O)[C@@H](NC(=O)CNC(=O)[C@H](CCC(=O)O)NC(=O)[C@H](C)NC(=O)CCc1cnc[nH]1)[C@@H](C)O)[C@@H](C)O)C(C)C)C(=O)N[C@@H](C)C(=O)N[C@@H](Cc1c[nH]c2ccccc12)C(=O)N[C@@H](CC(C)C)C(=O)N[C@H](C(=O)N[C@@H](CCCCNC(=O)COCCOCCNC(=O)COCCOCCNC(=O)CC[C@H](NC(=O)CCCCCCCCCCCCCCCCC(=O)O)C(=O)O)C(=O)NCC(=O)N[C@@H](CCCNC(=N)N)C(=O)N[C@@H](CCCCNc1c(NCCCCCN(O)C(=O)CCC(=O)NCCCCCN(O)C(=O)CCC(=O)NCCCCCN(O)C(C)=O)c(=O)c1=O)C(=O)NCC(=O)NCC(=O)N[C@@H](CO)C(=O)N[C@@H](CCCCNc1c(NCCCCCN(O)C(=O)CCC(=O)NCCCCCN(O)C(=O)CCC(=O)NCCCCCN(O)C(C)=O)c(=O)c1=O)C(=O)NCC(=O)NCC(=O)N[C@@H](CO)C(=O)N[C@@H](CCCCNc1c(NCCCCCN(O)C(=O)CCC(=O)NCCCCCN(O)C(=O)CCC(=O)NCCCCCN(O)C(C)=O)c(=O)c1=O)C(=O)O)C(C)C`: “fold potency loss” 3.7 (GLP1R; agonist, CRE luciferase reporter; BHK cells; metal-free DFO conjugate, added: 1% HSA; baseline: parent peptide).
The remaining activity of `COc1cc(Nc2ncc3c(n2)-c2ccc(Cl)cc2C(c2c(F)cccc2OC)=NC3)ccc1C(=O)O` is reported as 36% (ABL1 Y253F; kinase activity; 1 µM).
With `CC1(C)CN(CCCCC(=O)N[C@@H](CCC(=O)O)C(=O)N[C@@H](CCC(=O)O)C(=O)N[C@H](CCCCNC(=O)CCCCCCC(=O)NCCCC[C@H](NC(=O)N[C@@H](CCC(=O)O)C(=O)O)C(=O)O)C(=O)O)CC[N]2CC(C)(C)[S][Tc]2(=[O])[S]1` (stereo partly shown) [technetium-99m labelled] the Bmax was 10 µmol/mg (Glutamate carboxypeptidase 2 (FOLH1, Homo sapiens, UniProt Q04609); saturation binding; LNCaP).
`CC[C@H](C)[C@H](NC(=O)[C@H](Cc1ccccc1)NC(=O)[C@H](CCC(=O)O)NC(=O)[C@H](CCCNC(=N)N)NC(=O)[C@H](C)NC(=O)[C@H](C)NC(=O)[C@H](CCC(N)=O)NC(=O)[C@H](CCC(=O)O)NC(=O)[C@H](CCC(=O)O)NC(=O)[C@H](CC(C)C)NC(=O)[C@H](Cc1ccc(O)cc1)NC(=O)[C@H](CO)NC(=O)[C@H](CO)NC(=O)[C@@H](NC(=O)[C@H](CC(=O)O)NC(=O)[C@H](CO)NC(=O)[C@@H](NC(=O)[C@H](Cc1ccccc1)NC(=O)[C@@H](NC(=O)CNC(=O)[C@H](CCC(=O)O)NC(=O)[C@H](C)NC(=O)CCc1cnc[nH]1)[C@@H](C)O)[C@@H](C)O)C(C)C)C(=O)N[C@@H](C)C(=O)N[C@@H](Cc1c[nH]c2ccccc12)C(=O)N[C@@H](CC(C)C)C(=O)N[C@H](C(=O)N[C@@H](CCCNC(=N)N)C(=O)NCC(=O)N[C@@H](CCCNC(=N)N)C(=O)N[C@@H](CCCCNC(=O)COCCOCCNC(=O)COCCOCCNC(=O)CC[C@H](NC(=O)CCCCCCCCCCCCCCCCC(=O)O)C(=O)O)C(=O)NCC(=O)NCC(=O)N[C@@H](CO)C(=O)N[C@@H](CCCCNc1c(NCCCCCN(O)C(=O)CCC(=O)NCCCCCN(O)C(=O)CCC(=O)NCCCCCN(O)C(C)=O)c(=O)c1=O)C(=O)NCC(=O)NCC(=O)N[C@@H](CO)C(=O)N[C@@H](CCCCNc1c(NCCCCCN(O)C(=O)CCC(=O)NCCCCCN(O)C(=O)CCC(=O)NCCCCCN(O)C(C)=O)c(=O)c1=O)C(=O)O)C(C)C`: “fold potency loss” 3.6 (GLP1R; agonist, CRE luciferase reporter; BHK cells; Zr-loaded DFO conjugate, added: 0% HSA; baseline: parent peptide).
`CN1CCN(S(=O)(=O)c2ccc(-c3cnc(N)c(C(=O)Nc4cccnc4)n3)cc2)CC1` — result for “luminescence signal reduction”: -3.6% (NanoBiT HiBiT/LgBiT luciferase; inhibitor, HiBiT luminescence counterscreen; conditioned medium only; 1.66 µM, 24 h; baseline: vehicle).
For `CC[C@H](C)[C@@H]1NC(=O)[C@H](CCCNC(=N)N)NC(=O)[C@@H]2CCCN2C(=O)[C@H](Cc2ccccc2)NC(=O)[C@H]([C@@H](C)O)NC(=O)CNC(=O)[C@H](CC(C)C)NC(=O)[C@@H]2CCCN2C(=O)[C@H]([C@@H](C)O)NC(=O)[C@H](Cc2c[nH]c3ccccc23)NC(=O)[C@H](Cc2ccc(O)cc2)NC(=O)[C@H]([C@@H](C)CC)NC(=O)[C@H]([C@@H](C)O)NC(=O)[C@H]([C@@H](C)O)NC(=O)[C@@H](Cc2ccc(O)cc2)NC(=O)CSC[C@@H](C(N)=O)NC(=O)[C@H](CCCNC(=N)N)NC1=O`, the -TΔS was 1.7 ± 0.1 kcal/mol (Vacuolar protein sorting-associated protein 29 (VPS29, Homo sapiens, UniProt Q9UBQ0); binding, ITC; 25 °C, protein alone).
`CCN1CCC[C@H]1CNC(=O)c1c(O)c(Cl)cc(Cl)c1OC`: “log2 fold change” 0.166 (G-protein coupled receptor 39 (GPR39, Homo sapiens, UniProt O43194); β-arrestin recruitment, TANGO luminescence; concentration not given; baseline: basal luminescence).
For `O=C1NC(=O)/C(=C/c2ccc(-c3ccc(F)cc3O)o2)S1`, the remaining activity was 45% (Serine/threonine-protein kinase 26 (STK26, Homo sapiens, UniProt Q9P289); enzyme activity; 10 µM).
For `O=c1nc(SCc2cc(F)cc(C(F)(F)F)c2)nc(SCc2ccc3nc(OCCN4CCOCC4)ccc3c2)[nH]1`, the decatenated DNA was 85.8% (DNA topoisomerase 2-alpha (TOP2A, Homo sapiens, UniProt P11388); decatenation; 15.6 µM, replicate 1).
For `[O-][S+]1CCCCS1` (stereo not shown), “SOD1 dimer fraction” read 30.3% (Superoxide dismutase [Cu-Zn] (SOD1, Homo sapiens, UniProt P00441, G94A); LC-MS; human whole blood; 100 µM, 1 h, 37 °C).
`CC(=O)OCC1=C(C(=O)O)N2C(=O)[C@@H](NC(=O)Cc3cccs3)[C@H]2SC1` has a Km of 49 ± 2.8 µM (beta-lactamase RAD-1 (Riemerella anatipestifer); substrate, continuous spectrophotometric hydrolysis; 30 °C).
Under “normalised MST signal”, `NCCCS(=O)(=O)O` is recorded as -0.0435 (Sodium- and chloride-dependent taurine transporter (SLC6A6, Homo sapiens, UniProt P31641, Y138A); binding, microscale thermophoresis; 30.5 nM, room temperature, added: 50 nM labelled protein; higher = more binding).

For quick reference, copied from above:
The efficacy of `COc1cccc(-n2nc3c4cc(Cl)ccc4[nH]cc-3c2=O)c1` is reported as 98.1 ± 3.2% (Gamma-aminobutyric acid receptor subunit alpha-6/beta-3, with delta subunit (Gabra6/Gabrb3, Rattus norvegicus, UniProt P30191+P63079); ion current, modulator, two-electrode voltage clamp; 300 nM, α6β3δ receptor, added: GABA EC3-10).
Under “normalised MST signal”, `NCCCS(=O)(=O)O` is recorded as -0.0435 (Sodium- and chloride-dependent taurine transporter (SLC6A6, Homo sapiens, UniProt P31641, Y138A); binding, microscale thermophoresis; 30.5 nM, room temperature, added: 50 nM labelled protein; higher = more binding).
For `O=C1NC(=O)/C(=C/c2ccc(-c3ccc(F)cc3O)o2)S1`, the remaining activity was 45% (Serine/threonine-protein kinase 26 (STK26, Homo sapiens, UniProt Q9P289); enzyme activity; 10 µM).
The inhibition of `C[C@@H]1CCO[C@H]2Cn3cc(C(=O)NCc4ccc(F)cc4F)c(=O)c(O)c3C(=O)N12` is reported as 12.5% (Solute carrier family 22 member 3 (SLC22A3, Homo sapiens, UniProt O75751); transport; MDCK-II, transfected; 1 µM, added: MPP+ 2 µM).
